Published values from different studies.
Compare with care: the assays were run in different laboratories. Values joined by “and” are separate records of one study, mostly repeats; a detail may differ.
IGF1R: Insulin-like growth factor 1 receptor (IGF1R, Homo sapiens, UniProt P08069)
IGF1R phosphorylated: Insulin-like growth factor 1 receptor, phosphorylated (IGF1R, Homo sapiens, UniProt P08069)

`c1ccc2c(Nc3cc(C4CCC4)[nH]n3)nc(Nc3ccc4nc[nH]c4c3)nc2c1` has a remaining activity of 4% (IGF1R; enzyme activity, inhibitor; 0.25 µM).
`O=C=[N][Ru-4]123([n]4c5ccc(O)cc5c5c6c(c7cc(F)c[n+]1c7c54)C(=O)NC6=O)[S+]1CC[S+]2CC[S+]3CC1` (stereo not shown) gave a remaining activity of 54% (Insulin-like growth factor 1 receptor, activated (IGF1R, Homo sapiens, UniProt P08069); enzyme activity; 100 nM, human enzyme, together with: 10 µM ATP; relative to: untreated).
With `Cc1cccc(O[C@H]2CCC[C@@H](C(C)CNCc3ccncc3)C2)c1` (relative stereo) the inhibition was -2% (IGF1R; cell-free assay; 10 µM).
`Cc1cccc(-c2ccc3nc(NC(=O)C4CCCCC4)nn3c2)c1` gave a remaining activity of 97% (IGF1R; enzyme activity, Dundee kinase panel; 10 µM).
`CNC(=O)C[C@H](Cc1ccc(C#N)cc1)NC(=O)c1cc(-c2ccc(CN[C@H](C)c3ccc(C)cc3)o2)ccc1Cl` — result for “activity vs control”: 111% (IGF1R phosphorylated; enzyme activity, inhibitor; 1 µM).
`COc1ccc(NC(=O)Nc2ccc3c(c2)C(=O)N(C(C)CO)CC(C)C(CN(C)Cc2ccc4c(c2)OCO4)O3)cc1` (stereo not shown) gave a remaining activity of 92% (IGF1R; kinase activity, KinaseProfiler; 0.03 µM, species human; relative to: control).
`Cc1cccc(-c2ccc3nc(NC(=O)C4CCCO4)nn3c2)c1` (stereo not shown) gave a remaining activity of 78% (IGF1R; enzyme activity, Dundee kinase panel; 10 µM).
The remaining binding of `CC(=O)N1c2ccc(-c3ccc(CNC(=O)c4cn5cc(-c6cnc(N)nc6)nc(N6CCOCC6)c5n4)cc3)cc2CC[C@@H]1C` is reported as 96% (IGF1R; KINOMEscan; 10 µM).
The remaining binding of `CN1CCN(Cc2ccc(NC(=O)c3cccc(C#Cc4cnc(N)c5ncccc45)c3)cc2C(F)(F)F)CC1` is reported as 97% (IGF1R; cell-free assay, competition with immobilised ligand; 50 nM).
`Cc1cnc2nc1Nc1cccc(c1)COC/C=C/COCc1cc(ccc1OCCN1CCOCC1)N2` gave a remaining binding of 49% (IGF1R; binding; 0.1 µM).
`N[C@H]1CC[C@H](Nc2nccc(-c3cccnc3Oc3ccc(NC(=O)NC4CC4)c4ccccc34)n2)CC1` — result for “log2 LFQ intensity”: 26.7 (IGF1R; kinobead competition pulldown; HEK293/HCT116 lysate mixture; 10 µM, 1 h, 4 °C; lower = stronger competition).
With `CC(=O)NCC(=O)N[C@@H](Cc1ccccc1)C(=O)N[C@@H](Cc1ccccc1)C(=O)N[C@@H](Cc1ccc(O)cc1)C(=O)NCC(=O)N[C@@H](Cc1ccc(O)cc1)C(=O)NCC(=O)N[C@@H](CO)C(=O)N[C@@H](CO)C(=O)N[C@@H](CO)C(=O)N[C@@H](CCCNC(=N)N)C(=O)N[C@@H](CCCNC(=N)N)C(=O)N[C@@H](C)C(=O)N1CCC[C@H]1C(=O)N[C@@H](CCC(N)=O)C(=O)N[C@H](C(=O)O)[C@@H](C)O` the affinity increase was 10.7 (IGF1R; binding, microscale thermophoresis; unit not given; relative to: unassembled peptide Ac-IGF).
The remaining binding of `C=CC(=O)N1CCc2ccc(-n3c(=O)ccc4cnc5ccc(-c6cnn(C)c6)cc5c43)cc21` is reported as 100% (IGF1R; KINOMEscan; 1 µM; relative to: DMSO control).
`CN1CCN(Cc2ccc(-c3ccc(CO[C@H]4CCC[C@@H]4NC(=O)c4cc(-c5cnn(C)c5)cnc4N)cc3)cc2)CC1` has an inhibition of 6% (IGF1R; enzyme activity, inhibitor; 0.1 µM).
For `COCC12C(=O)NC3C4(C(OC)CC1O)C1CC5(O)C(OC)C(O)C(OC(C)=O)(C1C5OC(=O)c1ccccc1)C3(O)C(OC)C24` (stereo not shown), the remaining activity was 102% and 91% (IGF1R; kinase activity, inhibitor, ProQinase kinase profiling; 25 µM; relative to: control).
With `COc1cc(OC)c(F)c(/C=C/c2cnc3ccn(S(=O)(=O)c4cn(CCF)cn4)c3n2)c1F` the inhibition was 9.7% (IGF1R; 10 nM).
The inhibition of `C[C@H]1CN(C(=O)c2cn(-c3ccnc(N)n3)c3cc(C#CC4(O)CCCCC4)ccc23)CCN1` is reported as -1% (IGF1R; enzyme activity, inhibitor, FRET; 1 µM).
With `CN1CCN(c2ccc(Nc3ncc(Cl)c(Nc4ccccc4P(C)(C)=O)n3)cc2Br)CC1` the inhibition was 76.8% (IGF1R; enzyme activity, inhibitor; 0.1 µM).
The remaining signal of `C=C1CCCCCCCCCC(CO)C1=O` (stereo not shown) is reported as 100% (IGF1R; cell-free assay; 10 µM).
For `O=C(O)CCC(=O)c1cccc(NS(=O)(=O)c2c[nH]c3ncccc23)c1`, the remaining activity was 125% (IGF1R; kinase activity, radiometric; 10 µM).
For `CN1CC[C@@H](COc2cnc(C#N)cc2-c2ccn3nc(NC(=O)C4CC4)cc3c2)C1`, the inhibition was -5% (IGF1R phosphorylated; enzyme activity, inhibitor; 1 µM).
For `Cc1nc2c(F)cc(-c3nc(Nc4ccc(CNC(=O)CCCCCCC(=O)NO)cc4)ncc3F)cc2n1C(C)C`, the inhibition was 74% (IGF1R phosphorylated; enzyme activity, inhibitor; 1 µM).
The remaining binding of `CNC1C[S+]2CC[S+]3CC[S+](C1)[Ru-4]321([N]=C=S)[n]2c3ccc(OC)cc3c3c4c(c5cc(F)c[n+]1c5c32)C(=O)NC4=O` (stereo not shown) is reported as 100% (IGF1R; KinomeScan; 0.1 µM; relative to: untreated).
`COc1c(Cl)cccc1Nc1c(-c2ccncc2C#C[C@@]2(C)CCCN2C(=O)/C=C/CN(C)C)[nH]c2c1C(=O)NCC2` gave a remaining binding of 98% (IGF1R; cell-free assay, competition with immobilised ligand; 3 µM).
With `C=CC(=O)Nc1cccc(-c2cnc3[nH]cc(C(=O)NC(C)(C)C)c3n2)c1` the inhibition was 4% (IGF1R; enzyme activity, inhibitor; 0.1 µM).
`O=C(Cc1ccc(OCc2ccccc2)cc1)NC1(C(=O)O)CCN(C(=O)c2ccc(-c3cccc(Cl)c3)cc2)CC1` — result for “activity vs control”: 87% (IGF1R phosphorylated; enzyme activity, inhibitor; 10 µM).
`NC(=O)C[C@H]1CCc2sc3ncnc(O[C@H]4CC[C@H](N5CCOCC5)CC4)c3c21` has an inhibition of 3% (IGF1R; enzyme activity, inhibitor; 10 µM).
`COc1cc(Nc2nccc(-c3cnn4nc(OC)ccc34)n2)cc(C(F)(F)F)c1` has a remaining binding of 100% (IGF1R; binding, competition with immobilised ligand; 1 µM).

Some of these lines once more:
`N[C@H]1CC[C@H](Nc2nccc(-c3cccnc3Oc3ccc(NC(=O)NC4CC4)c4ccccc34)n2)CC1` — result for “log2 LFQ intensity”: 26.7 (IGF1R; kinobead competition pulldown; HEK293/HCT116 lysate mixture; 10 µM, 1 h, 4 °C; lower = stronger competition).
The remaining binding of `CN1CCN(Cc2ccc(NC(=O)c3cccc(C#Cc4cnc(N)c5ncccc45)c3)cc2C(F)(F)F)CC1` is reported as 97% (IGF1R; cell-free assay, competition with immobilised ligand; 50 nM).
`Cc1cnc2nc1Nc1cccc(c1)COC/C=C/COCc1cc(ccc1OCCN1CCOCC1)N2` gave a remaining binding of 49% (IGF1R; binding; 0.1 µM).
